Results collected from several papers.
Values joined by “and” are separate records of one study, mostly repeats; a detail may differ. Numbers after ± are the reported error.
CASP3: Caspase-3 (CASP3, Homo sapiens, UniProt P42574)
Chain of UniProt P42574 (whole entry, looked up): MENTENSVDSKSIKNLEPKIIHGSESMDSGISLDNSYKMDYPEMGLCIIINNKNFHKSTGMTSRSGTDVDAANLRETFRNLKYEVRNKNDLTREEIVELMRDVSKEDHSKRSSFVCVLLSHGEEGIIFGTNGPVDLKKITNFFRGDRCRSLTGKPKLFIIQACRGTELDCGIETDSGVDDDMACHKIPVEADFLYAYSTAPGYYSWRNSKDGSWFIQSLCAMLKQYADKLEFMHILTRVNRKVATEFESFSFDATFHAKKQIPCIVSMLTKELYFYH
GBA2: Beta-glucosidase (GBA2, Homo sapiens, UniProt Q9HCG7)
Chain of UniProt Q9HCG7 (whole entry, looked up): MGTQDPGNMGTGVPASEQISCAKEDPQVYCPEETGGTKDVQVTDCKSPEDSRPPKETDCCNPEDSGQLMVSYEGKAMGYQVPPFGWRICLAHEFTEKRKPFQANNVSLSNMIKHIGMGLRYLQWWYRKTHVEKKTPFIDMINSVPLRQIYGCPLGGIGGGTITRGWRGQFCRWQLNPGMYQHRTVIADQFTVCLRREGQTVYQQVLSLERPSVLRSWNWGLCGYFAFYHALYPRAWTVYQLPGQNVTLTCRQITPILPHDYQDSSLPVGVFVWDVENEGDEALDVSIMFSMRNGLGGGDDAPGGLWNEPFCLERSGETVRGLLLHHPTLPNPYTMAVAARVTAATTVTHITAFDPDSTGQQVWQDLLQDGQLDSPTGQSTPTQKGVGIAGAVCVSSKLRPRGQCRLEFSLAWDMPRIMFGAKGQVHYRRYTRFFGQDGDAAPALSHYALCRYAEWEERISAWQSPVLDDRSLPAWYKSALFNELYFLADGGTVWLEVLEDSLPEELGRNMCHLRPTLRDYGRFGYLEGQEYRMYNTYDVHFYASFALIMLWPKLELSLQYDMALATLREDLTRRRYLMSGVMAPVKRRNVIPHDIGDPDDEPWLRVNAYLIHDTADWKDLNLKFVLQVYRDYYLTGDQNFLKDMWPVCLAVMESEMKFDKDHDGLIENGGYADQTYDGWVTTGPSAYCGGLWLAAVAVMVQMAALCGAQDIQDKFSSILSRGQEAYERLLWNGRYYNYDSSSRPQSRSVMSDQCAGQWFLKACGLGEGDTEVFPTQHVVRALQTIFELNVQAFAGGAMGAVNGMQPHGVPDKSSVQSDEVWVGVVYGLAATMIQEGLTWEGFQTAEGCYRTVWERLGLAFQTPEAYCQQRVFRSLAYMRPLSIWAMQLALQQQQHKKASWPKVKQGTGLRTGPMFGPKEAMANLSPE
T1: hairpin RNA, hairpin; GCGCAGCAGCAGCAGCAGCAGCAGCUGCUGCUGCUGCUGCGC
Chain of UniProt Q13148 (whole entry, looked up): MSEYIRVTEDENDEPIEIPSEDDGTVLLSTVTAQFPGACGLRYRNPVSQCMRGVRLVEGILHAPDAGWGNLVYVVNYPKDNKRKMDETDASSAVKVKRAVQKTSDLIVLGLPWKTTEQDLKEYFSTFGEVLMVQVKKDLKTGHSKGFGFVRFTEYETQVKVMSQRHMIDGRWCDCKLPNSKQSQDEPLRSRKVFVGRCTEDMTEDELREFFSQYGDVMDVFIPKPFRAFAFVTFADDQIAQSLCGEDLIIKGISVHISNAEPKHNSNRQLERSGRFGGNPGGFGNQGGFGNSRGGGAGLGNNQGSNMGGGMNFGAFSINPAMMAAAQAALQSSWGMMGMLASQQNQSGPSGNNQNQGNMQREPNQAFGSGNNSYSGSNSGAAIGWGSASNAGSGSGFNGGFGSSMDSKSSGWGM
Chain of UniProt Q9BY41 (whole entry, unmodified, looked up): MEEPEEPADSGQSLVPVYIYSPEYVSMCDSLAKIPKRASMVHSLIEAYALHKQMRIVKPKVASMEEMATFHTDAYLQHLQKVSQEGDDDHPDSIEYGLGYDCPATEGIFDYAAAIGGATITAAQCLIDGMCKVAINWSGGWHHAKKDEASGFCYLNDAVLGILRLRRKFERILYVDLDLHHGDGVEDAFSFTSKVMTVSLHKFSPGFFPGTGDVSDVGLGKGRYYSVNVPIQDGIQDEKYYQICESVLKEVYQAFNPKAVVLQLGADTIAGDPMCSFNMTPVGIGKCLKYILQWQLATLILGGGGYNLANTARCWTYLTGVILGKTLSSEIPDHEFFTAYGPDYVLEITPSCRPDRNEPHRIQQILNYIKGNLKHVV
Chain of UniProt P50552 (whole entry, looked up): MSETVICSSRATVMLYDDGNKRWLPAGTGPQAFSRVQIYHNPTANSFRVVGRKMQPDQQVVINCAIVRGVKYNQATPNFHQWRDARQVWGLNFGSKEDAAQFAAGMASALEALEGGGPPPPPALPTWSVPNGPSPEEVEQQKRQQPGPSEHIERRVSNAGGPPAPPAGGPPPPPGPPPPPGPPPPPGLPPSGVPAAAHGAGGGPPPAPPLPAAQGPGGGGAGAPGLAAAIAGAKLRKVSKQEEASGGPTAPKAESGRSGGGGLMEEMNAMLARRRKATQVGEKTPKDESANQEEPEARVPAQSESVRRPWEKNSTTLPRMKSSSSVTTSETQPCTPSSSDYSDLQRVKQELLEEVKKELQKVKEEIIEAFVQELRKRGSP
Chain of UniProt O14744 (whole entry, looked up): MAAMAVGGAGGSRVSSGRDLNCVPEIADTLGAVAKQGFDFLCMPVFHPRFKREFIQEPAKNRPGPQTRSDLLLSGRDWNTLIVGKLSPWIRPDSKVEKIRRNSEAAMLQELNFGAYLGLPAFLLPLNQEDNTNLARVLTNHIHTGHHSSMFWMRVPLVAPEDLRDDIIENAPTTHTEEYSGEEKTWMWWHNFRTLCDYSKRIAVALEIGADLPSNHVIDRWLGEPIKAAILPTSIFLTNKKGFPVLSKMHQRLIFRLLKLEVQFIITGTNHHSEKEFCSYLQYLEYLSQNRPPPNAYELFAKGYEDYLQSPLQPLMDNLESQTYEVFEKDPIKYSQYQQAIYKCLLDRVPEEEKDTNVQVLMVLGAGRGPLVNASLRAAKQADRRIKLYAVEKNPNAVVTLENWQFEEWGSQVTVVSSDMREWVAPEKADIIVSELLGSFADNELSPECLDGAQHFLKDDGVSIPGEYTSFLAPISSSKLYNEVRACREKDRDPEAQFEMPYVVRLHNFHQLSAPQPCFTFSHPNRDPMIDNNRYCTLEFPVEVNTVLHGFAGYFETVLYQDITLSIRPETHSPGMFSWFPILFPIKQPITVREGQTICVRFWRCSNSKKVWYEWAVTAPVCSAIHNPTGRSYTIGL
Chain of UniProt Q03431 (whole entry, looked up): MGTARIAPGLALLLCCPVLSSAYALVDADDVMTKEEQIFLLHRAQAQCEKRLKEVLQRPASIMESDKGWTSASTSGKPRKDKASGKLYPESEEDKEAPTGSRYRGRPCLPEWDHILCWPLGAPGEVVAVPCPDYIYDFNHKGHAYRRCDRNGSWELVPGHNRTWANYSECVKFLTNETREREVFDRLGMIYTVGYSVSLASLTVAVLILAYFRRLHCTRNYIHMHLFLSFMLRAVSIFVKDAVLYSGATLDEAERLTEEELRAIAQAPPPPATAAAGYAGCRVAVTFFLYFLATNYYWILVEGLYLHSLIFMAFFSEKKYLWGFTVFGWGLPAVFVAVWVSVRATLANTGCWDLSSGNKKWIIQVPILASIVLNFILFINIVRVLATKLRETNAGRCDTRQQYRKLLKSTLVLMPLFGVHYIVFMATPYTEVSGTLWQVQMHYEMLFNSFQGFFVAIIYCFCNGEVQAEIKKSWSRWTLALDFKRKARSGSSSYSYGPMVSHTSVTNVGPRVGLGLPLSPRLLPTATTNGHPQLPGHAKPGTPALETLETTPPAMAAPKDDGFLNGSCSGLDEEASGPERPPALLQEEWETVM
Chain of UniProt Q9HB29 (whole entry, looked up): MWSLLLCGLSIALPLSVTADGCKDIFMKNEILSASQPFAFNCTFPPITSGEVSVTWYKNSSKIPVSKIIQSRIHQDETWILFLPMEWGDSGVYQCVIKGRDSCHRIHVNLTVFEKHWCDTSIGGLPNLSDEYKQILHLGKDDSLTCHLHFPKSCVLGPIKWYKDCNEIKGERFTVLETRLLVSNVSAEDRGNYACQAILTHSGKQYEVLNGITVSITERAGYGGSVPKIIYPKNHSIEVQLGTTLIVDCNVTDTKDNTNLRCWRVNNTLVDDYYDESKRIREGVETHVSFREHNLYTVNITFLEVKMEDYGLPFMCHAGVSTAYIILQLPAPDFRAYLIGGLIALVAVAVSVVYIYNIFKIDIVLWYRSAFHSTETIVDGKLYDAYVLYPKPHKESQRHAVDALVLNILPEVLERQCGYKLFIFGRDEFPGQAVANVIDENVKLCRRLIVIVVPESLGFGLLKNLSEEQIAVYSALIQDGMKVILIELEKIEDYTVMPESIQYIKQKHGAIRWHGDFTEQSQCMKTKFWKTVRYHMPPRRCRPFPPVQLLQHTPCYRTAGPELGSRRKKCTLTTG
Chain of UniProt Q5VWZ2 (whole entry, looked up): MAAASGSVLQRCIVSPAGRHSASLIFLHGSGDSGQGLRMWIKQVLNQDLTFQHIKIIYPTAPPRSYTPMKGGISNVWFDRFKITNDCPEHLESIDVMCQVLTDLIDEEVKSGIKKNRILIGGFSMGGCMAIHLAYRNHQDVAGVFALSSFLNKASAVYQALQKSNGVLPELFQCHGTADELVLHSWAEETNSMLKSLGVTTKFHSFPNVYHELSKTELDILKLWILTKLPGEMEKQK
Chain of UniProt Q92633 (whole entry, unmodified, looked up): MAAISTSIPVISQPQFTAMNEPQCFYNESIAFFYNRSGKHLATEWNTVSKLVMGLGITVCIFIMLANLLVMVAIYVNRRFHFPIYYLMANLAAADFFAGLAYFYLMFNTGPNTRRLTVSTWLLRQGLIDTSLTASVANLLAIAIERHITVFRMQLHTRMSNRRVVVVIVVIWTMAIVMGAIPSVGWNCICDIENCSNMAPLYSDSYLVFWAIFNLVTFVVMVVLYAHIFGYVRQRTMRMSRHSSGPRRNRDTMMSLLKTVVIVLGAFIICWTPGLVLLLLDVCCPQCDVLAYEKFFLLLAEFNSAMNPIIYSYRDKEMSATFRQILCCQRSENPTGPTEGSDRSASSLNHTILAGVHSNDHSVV

| Compound | tested on | test | system | setting | how to read | measurement | value |
| --- | --- | --- | --- | --- | --- | --- | --- |
| CC(=O)N1C[C@H](O)C[C@H]1C(=O)N[C@H](C(=O)N[C@@H](CO)C(=O)N[C@@H](CC(=O)O)C(=O)COC(=O)c1c(C)cccc1C)C(C)C | CASP3 | enzyme activity, inhibitor |  |  |  | kinact/KI | 11700 M⁻¹ s⁻¹ |
| CN1CCCNC(=O)c2cccc(c2)C(=O)NCCCN(C)CCCNc2cccc3c2C(=O)c2cccc(c2C3=O)NCCC1 | SAS | RNA-Seq, refers to: CEP19 mRNA |  | 1 µM, 6 h | reference: untreated cells | log2 fold change | 1.53 |
| N#CN1CC[C@H](C(=O)Nc2nc3c(s2)CN(C(=O)Cn2cc(COCCOCCOCCOCCNC(=O)CCCC[C@@H]4SC[C@@H]5NC(=O)N[C@@H]54)nn2)CC3)C1 | TYMS (Homo sapiens, UniProt P04818) | probe binding, affinity probe, neutravidin pull-down LC-MS/MS | HEK293T, cell lysate | 5 µM, 1 h, mean of three replicates, unit not given | higher = more pulled down | iBAQ abundance | 4.68e+08 |
| O=C1c2sc(-c3ccc(N4CCC(CO)CC4)nc3F)nc2CCN1c1cccnc1 | TAR DNA-binding protein 43, aggregated (TARDBP, Homo sapiens, UniProt Q13148) | radioligand binding | human, FTLD-TDP type B extract | added: radioligand 13.55 nM |  | specific binding | 5.24 nM and 3.25 nM |
| COC(=O)CC(c1cc2ccccc2n(C)c1=O)c1c(O)cc(O)c2c(=O)c(O)c(-c3ccc(O)c(O)c3)oc12 (centres unmarked) | B4GALT1 (Homo sapiens, UniProt P15291) | enzyme activity, inhibitor, UDP-Glo |  | 10 µM | lower means stronger inhibition | luminescence | 9890 a.u. |
| OC[C@H]1N[C@H](C/C=C/CCOCC23CC4CC(CC(C4)C2)C3)[C@H](O)[C@@H](O)[C@@H]1O | GBA2 | inhibitor, 4MU-β-D-glucopyranoside | HEK293T homogenates overexpressing GBA2 |  | reference: GBA1 IC50 over GBA2 IC50 | selectivity ratio | 13 |
| CCN(CC)C(CO)c1cccc2c(C)c(C)oc12 (centres unmarked) | LPAR1 (Homo sapiens, UniProt Q92633, W210A) | Gi activation, agonist, NanoBiT G-protein dissociation | HEK293T | W210A mutant, unit not given | reference: wild type | change in Emax | 0.96 |
| C#CCCC1(CCNC(=O)c2cn(CC)c3c(F)c(N4CCC(CNCC)C4)c(F)cc3c2=O)N=N1 (racemic) | T1, hairpin RNA, hairpin | gel after photo-cross-linking |  | covalent |  | binding | binds |
| CCCCCN1C[C@@H](O)[C@H](O)[C@H](O)[C@@H]1CO | GBA2 | inhibitor, 4MU-β-D-glucopyranoside | HEK293T homogenates overexpressing GBA2 |  | reference: GBA1 IC50 over GBA2 IC50 | selectivity ratio | 4000 |
| Cc1nn(-c2cccc(N)c2)c(=O)c2cnc(Nc3ccc(N4CCNCC4)cc3)nc12 | Tyrosine-protein kinase JAK2, JH1 (JAK2, Homo sapiens, UniProt O60674, V617F) | enzyme activity, inhibitor |  |  |  | IC50 | > 10000 nM |
| O=C(NC[C@@H](Cc1ccc(F)cc1)N1CCC(O)(C(F)(F)F)CC1)C1(c2ccc(Cl)cc2)CCCC1 | TRPA1 (Homo sapiens, UniProt O75762, M953A) |  |  | concentration not given |  | activity | inactive |
| N[C@H]1CC[C@H](Nc2nccc(-c3cccnc3Oc3ccc(NC(=O)NC4CC4)c4ccccc34)n2)CC1 | RACK1 (Homo sapiens, UniProt P63244) | kinobead competition pulldown, refers to: GNB2L1 | HEK293/HCT116 lysate mixture | 10 µM, 1 h, 4 °C | lower = stronger competition | log2 LFQ intensity | 20.1 and 19.9 and 21.9 and 21.6 |
| CCCCCCCOCCCCCN1C[C@H](O)[C@@H](O)[C@H](O)[C@H]1CO | GBA2 | inhibitor, 4MU-β-D-glucopyranoside | HEK293T homogenates overexpressing GBA2 |  | reference: GBA1 IC50 over GBA2 IC50 | selectivity ratio | 117 |
| CC[C@H](NC(=O)[C@@H](NC(=O)[C@H](CC(=O)O)NC(C)=O)[C@@H](C)O)C(=O)N[C@@H](CC(=O)O)C(=O)COC(=O)c1c(C)cccc1C | CASP3 | enzyme activity, inhibitor |  |  |  | kinact/KI | 2.04e+06 M⁻¹ s⁻¹ |
| CC(C)[C@@H]1NC(=O)[C@H](Cc2ccccc2)NC(=O)CSC[C@@H](C(N)=O)NC(=O)[C@H](CCC(=O)O)NC(=O)[C@H](CO)NC(=O)[C@H](Cc2c[nH]c3cccc(Cl)c23)NC(=O)[C@H](C2CCCCC2)NC(=O)[C@H](C(C)C)NC(=O)[C@H](Cc2ccc(O)cc2)NC(=O)[C@H](CC(=O)O)NC(=O)[C@H](Cc2c[nH]c3ccccc23)NC(=O)[C@H](Cc2ccc(N)nc2)NC(=O)[C@H](Cc2c[nH]c3ccc(Cl)cc23)NC(=O)[C@H](CCC(=O)O)NC1=O | Interleukin-1 receptor-like 2 (IL1RL2, Homo sapiens, UniProt Q9HB29) | reporter gene (SEAP), inhibitor, HEK-Blue IL-36R reporter | HEK-Blue IL-36R cells | 0.015 µM, 6 h, added: IL-36β 100 ng/mL |  | remaining activity | 89.2% |
| Cc1ncsc1-c1ccc(C(C)NC(=O)C2CC(O)CN2C(=O)C(NC(=O)CCCCCCCCCCN2CCCC(Nc3ncc(Cl)c(Nc4ccccc4S(=O)(=O)C(C)C)n3)C2)C(C)(C)C)cc1 (centres unmarked) | 22Rv1 | RNA-seq, refers to: RAD51D mRNA |  | concentration not given | reference: DMSO | log2 fold change | -1.41 |
| Nc1ncc(-c2cc(-c3cnn(CC(F)(F)F)c3)ncc2F)nc1C(=O)NC1CNCC(F)C1 (centres unmarked) | FLT3-autoinhibited | KINOMEscan competition binding |  | 1 µM | reference: DMSO control | remaining binding | 87% |
| CCCCCC=CC=C1C(=O)C=CC1CC=CCCCC(=O)O (centres unmarked) | DYNC1LI1 (Homo sapiens, UniProt Q9Y6G9) | competitive isoTOP-ABPP | Ramos soluble proteome | 100 µM, 60 min, added: iodoacetamide probe | reference: DMSO over compound-treated, higher = stronger cysteine blockade | isoTOP-ABPP competition ratio | 5 |

| Compound | tested on | test | system | setting | how to read | measurement | value |
| --- | --- | --- | --- | --- | --- | --- | --- |
| C=CC(=O)Nc1cccc(Cn2ncc3cnc(Nc4cnn(CCOC)c4)nc32)c1 | LIMK1 human | binding, KINOMEscan |  | 100 nM | lower = stronger binding | percent of control | 45% |
| NC(=O)c1cccc(S(=O)(=O)n2nc(SCc3ccc(Cl)cc3)nc2N)c1 | LYPLAL1 (Homo sapiens, UniProt Q5VWZ2) | enzyme activity, activator, gel-based ABPP | purified protein | concentration not given, added: FP-rhodamine | reference: DMSO | probe labeling increase | 1.6 fold |
| COC1CN([C@H]2CC[C@H]([C@@]3(C)Oc4c(Cl)cc(C(=O)NCc5c(SC)cc(C)[nH]c5=O)c(C)c4O3)CC2)C1 |  | RNA-seq, refers to: PTPRD mouse homolog | mouse, HT-1376 xenograft, whole blood | dose not given | reference: vehicle | log2 fold change | 0.373 |
| C=CC(=O)N1C[C@H](C)N(c2nc(OC[C@@]34CCCN3C[C@H](F)C4)nc3c(F)c(-c4ccc(F)c5sc(N)c(C#N)c45)c(C(F)(F)F)cc23)C[C@H]1C | GTPase KRas, GDP-bound (KRAS, Homo sapiens, UniProt P01116, G12D) | SPR |  |  |  | dissociation rate constant koff | 0.00228 ± 0.00042 s⁻¹ |
| Cc1ccc(NC(=O)NC(C)(C)c2cccc(NC3=CC(=O)N(C4CCC(=O)NC4=O)C3=O)c2)cc1Cl (centres unmarked) | CRBN/IKZF4 (Homo sapiens, UniProt Q96SW2+Q9H2S9) | degrader, quantitative proteomics, refers to: protein abundance | human regulatory T cells | 1 µM, 4 h | reference: DMSO | log2 fold change | -4.71 |
| CC(C)(C)CCOCCCCCN1C[C@H](O)[C@@H](O)[C@H](O)[C@H]1CO | GBA2 | inhibitor, 4MU-β-D-glucopyranoside | HEK293T homogenates overexpressing GBA2 |  | reference: GCS IC50 over GBA2 IC50 | selectivity ratio | 152 |
| CN1CCN(c2ccc(-c3ccc(-c4ccc(C(=N)N)cc4)s3)cc2)CC1 | PRMT5 (Homo sapiens, UniProt O14744) | enzyme activity, inhibitor, radiometric |  | 20 µM |  | remaining activity | 34.1% |
| Fc1ccc(Nc2nc(NC3CCCCC3)c3ccccc3n2)cc1F | ADRB2 (Homo sapiens, UniProt P07550, L155C) | β-arrestin2 recruitment, antagonist, BRET |  | mutant L155C | reference: isoprenaline maximal response | maximal inhibition | -1.3% |
| CCCCCCN1C[C@H](O)[C@@H](O)[C@H](O)[C@H]1CO | GBA2 | inhibitor, 4MU-β-D-glucopyranoside | HEK293T homogenates overexpressing GBA2 |  | reference: GCS IC50 over GBA2 IC50 | selectivity ratio | 182 |
| CCCC[C@H](NC(=O)[C@H](CC(C)C)NC(=O)[C@H](CCC(N)=O)NC(=O)[C@@H](NC(=O)[C@H](CCC(=O)O)NC(=O)C(C)(C)NC(=O)[C@@H](NC(=O)C1(N)CCCC1)C(C)C)[C@@H](C)CC)C(=O)N[C@@H](Cc1c[nH]cn1)C(=O)N[C@@H](CCC(N)=O)C(=O)N[C@@H](CCCCNC(=N)N)C(=O)N[C@@H](C)C(=O)N[C@@H](CCCCNC(=O)[C@H](CCCNC(=N)N)NC(=O)CCCCCCCCCCCCCCCCC(=O)O)C(N)=O | PTH1R (Homo sapiens, UniProt Q03431) | cAMP response, agonist, GloSensor cAMP | GP-2.3 | ligand-on phase |  | Emax (normalized AUC) | 110 ± 3% |
| Cc1cc(=O)oc2cc(NC(=O)CCCCCCCC(=O)NO)ccc12 | HDAC8 (Homo sapiens, UniProt Q9BY41) | ITC | phosphate buffer | pH 7.5 |  | TΔS | 7.2 kcal/mol |
| Cc1ccc(-c2ccc(COCCCCCN3C[C@H](O)[C@@H](O)[C@H](O)[C@H]3CO)cc2)cc1 | GBA2 | inhibitor, 4MU-β-D-glucopyranoside | HEK293T homogenates overexpressing GBA2 |  | reference: GBA1 IC50 over GBA2 IC50 | selectivity ratio | 83 |
| CCOC(=O)C1CC(CC)C2C=CC3CCN(C(=O)C4CCC5C=CC6(CCCN6C(=O)C(Cc6ccccc6Cl)NC(C)=O)C(=O)N54)C3C(=O)N12 (centres unmarked) | Vasodilator-stimulated phosphoprotein, EVH1 domain (VASP, Homo sapiens, UniProt P50552) | fluorescence titration |  | 25 °C |  | binding free energy | -8.75 kcal/mol |
| OC[C@@H]1[C@@H](O)[C@H](O)[C@@H](O)CN1CCCCCOCc1ccccc1-c1ccccc1 | GBA2 | inhibitor, 4MU-β-D-glucopyranoside | HEK293T homogenates overexpressing GBA2 |  | reference: GCS IC50 over GBA2 IC50 | selectivity ratio | 17 |
| CC(=O)N[C@@H](CC(=O)O)C(=O)N[C@@H](CCC(=O)O)C(=O)N[C@H](C(=O)N[C@@H](CC(=O)O)C(=O)COC(=O)c1c(C)cccc1C)C(C)C | CASP3 | enzyme activity, inhibitor |  |  |  | kinact/KI | 3.7e+06 M⁻¹ s⁻¹ |
| CCCCCOCCCCCN1C[C@H](O)[C@@H](O)[C@H](O)[C@H]1CO | GBA2 | inhibitor, 4MU-β-D-glucopyranoside | HEK293T homogenates overexpressing GBA2 |  | reference: GBA1 IC50 over GBA2 IC50 | selectivity ratio | 17600 |
| CNS(=O)(=O)Nc1nccc(Cc2c(C)c3ccc(Oc4ncccc4F)cc3oc2=O)c1F | HMVII | cell viability, CellTiter-Glo |  | 7 days |  | IC50 | 2.54 nM |

A few entries again:
| Compound | tested on | test | system | setting | how to read | measurement | value |
| --- | --- | --- | --- | --- | --- | --- | --- |
| COC(=O)CC(c1cc2ccccc2n(C)c1=O)c1c(O)cc(O)c2c(=O)c(O)c(-c3ccc(O)c(O)c3)oc12 (centres unmarked) | B4GALT1 (Homo sapiens, UniProt P15291) | enzyme activity, inhibitor, UDP-Glo |  | 10 µM | lower means stronger inhibition | luminescence | 9890 a.u. |
| OC[C@H]1N[C@H](C/C=C/CCOCC23CC4CC(CC(C4)C2)C3)[C@H](O)[C@@H](O)[C@@H]1O | GBA2 | inhibitor, 4MU-β-D-glucopyranoside | HEK293T homogenates overexpressing GBA2 |  | reference: GBA1 IC50 over GBA2 IC50 | selectivity ratio | 13 |
| CCN(CC)C(CO)c1cccc2c(C)c(C)oc12 (centres unmarked) | LPAR1 (Homo sapiens, UniProt Q92633, W210A) | Gi activation, agonist, NanoBiT G-protein dissociation | HEK293T | W210A mutant, unit not given | reference: wild type | change in Emax | 0.96 |
| C#CCCC1(CCNC(=O)c2cn(CC)c3c(F)c(N4CCC(CNCC)C4)c(F)cc3c2=O)N=N1 (racemic) | T1, hairpin RNA, hairpin | gel after photo-cross-linking |  | covalent |  | binding | binds |
| CCCCCN1C[C@@H](O)[C@H](O)[C@H](O)[C@@H]1CO | GBA2 | inhibitor, 4MU-β-D-glucopyranoside | HEK293T homogenates overexpressing GBA2 |  | reference: GBA1 IC50 over GBA2 IC50 | selectivity ratio | 4000 |
